Measurements gathered from unrelated publications.
Parts stem from different laboratories: compare values within a part only.

Series 1
Target: Interferon regulatory factor 7, full length, phosphomimetic (IRF7, Homo sapiens, UniProt Q92985, residues 1-503, S471D/S472D/S475D/S476D/S477D/S483D/S484D/S487D)
Chain of UniProt Q92985 (whole entry, unmodified, looked up): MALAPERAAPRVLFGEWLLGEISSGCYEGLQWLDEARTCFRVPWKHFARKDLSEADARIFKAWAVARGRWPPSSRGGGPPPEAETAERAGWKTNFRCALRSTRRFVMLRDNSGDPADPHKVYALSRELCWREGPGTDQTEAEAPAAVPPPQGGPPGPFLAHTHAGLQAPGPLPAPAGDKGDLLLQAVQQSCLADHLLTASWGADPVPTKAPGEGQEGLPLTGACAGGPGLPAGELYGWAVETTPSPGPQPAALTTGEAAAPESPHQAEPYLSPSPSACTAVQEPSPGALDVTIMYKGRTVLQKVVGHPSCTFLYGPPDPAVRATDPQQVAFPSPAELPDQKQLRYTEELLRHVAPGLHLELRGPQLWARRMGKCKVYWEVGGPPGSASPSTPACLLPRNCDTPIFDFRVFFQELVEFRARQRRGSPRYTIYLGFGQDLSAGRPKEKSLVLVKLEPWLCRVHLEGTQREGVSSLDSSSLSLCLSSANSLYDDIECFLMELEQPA
Method: protein-binding microarray
Molecule type: double-stranded DNA, one strand shown
Sample: in vitro
Concentration: 2200 nM top
Notes: 60-bp whole probe
Together with: salmon DNA 0.4 mg/ml
Baseline: random background probes
Direction: higher = stronger binding
Quantity: fitted relative affinity
Strand = GCCTAGCACGACGGACTTGGTATCGGGACGTGCTAGGTCTTGATTCGCTTGACGCTGCTG; result = -0.288 z-score
Strand = GCCTAGCACGACGGACTGGGACAGGGGACGTGCTAGGTCTTGATTCGCTTGACGCTGCTG; result = -0.949 z-score
Strand = GCCTAGCACGACGGATTCCTTTTCCTGACGTGCTAGGTCTTGATTCGCTTGACGCTGCTG; result = 1.97 z-score

Series 2
Target: Histone acetyltransferase KAT6A, winged helix 2, GST fusion (KAT6A, Homo sapiens, UniProt Q92794, residues 85-181)
Method: protein binding microarray
Molecule type: double-stranded DNA, one strand shown
Sample: in vitro
Concentration: not given
Notes: 8-mer, flanks averaged, mean of 2 arrays, mostly near background
Baseline: not given
Direction: higher = stronger binding
Quantity: E-score
Target sequence (chain): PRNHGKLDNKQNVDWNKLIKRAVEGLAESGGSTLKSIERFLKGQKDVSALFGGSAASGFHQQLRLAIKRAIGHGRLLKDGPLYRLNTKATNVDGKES
Strand = ACGAATCA; result = 0.0806
Strand = CCACTCAG; result = -0.0656
Strand = CCTGTTTC; result = 0.0576
Strand = AAGTGCGT; result = -0.138

Series 3
Target: Prothrombin, mature alpha-thrombin (F2, Homo sapiens, UniProt P00734)
Method: aptamer microarray, sandwich
Molecule type: DNA with 2'F-ANA
Sample: in vitro
Concentration: 200 nM
Notes: whole 15-mer aptamer, many near background
Together with: Cy3 exosite-II aptamer, 400 nM
Direction: higher = stronger binding
Quantity: mean fluorescence intensity
Strand = GGTTGGTGTGGTTGG (2'F-ANA at 2 4 5 6 7 13); result = 54.4 a.u.
Strand = GGTTGGTGTGGTTGG (2'F-ANA at 1 2 3 5 8 9 10 11 12 14); result = 50.2 a.u.
Strand = GGTTGGTGTGGTTGG (2'F-ANA at 1 2 3 4 5 6 8 10 12 13 15); result = 50.4 a.u.

Further values, each from its own experiment
Molecule = PhoQ, residues 284 288 289 292 302 303 NLCILV; target = PhoP, residues 12 14 15 18 19 SPWRL (Escherichia coli, UniProt P23836); test = Sort-seq, refers to: YFP reporter; system = E. coli; conditions = PhoQ-PhoP variant library, together with: 10 µM Mg2+; how to read = baseline: high Mg2+ state, higher = stronger signaling; quantity = fold induction; result = 8.71
